Results gathered from unrelated publications.
Protocols differ between the studies behind these lines. “And” joins repeats or separate records; there may be more than shown. ± gives the spread as reported.
UniProt P81908, sequence (whole entry, looked up): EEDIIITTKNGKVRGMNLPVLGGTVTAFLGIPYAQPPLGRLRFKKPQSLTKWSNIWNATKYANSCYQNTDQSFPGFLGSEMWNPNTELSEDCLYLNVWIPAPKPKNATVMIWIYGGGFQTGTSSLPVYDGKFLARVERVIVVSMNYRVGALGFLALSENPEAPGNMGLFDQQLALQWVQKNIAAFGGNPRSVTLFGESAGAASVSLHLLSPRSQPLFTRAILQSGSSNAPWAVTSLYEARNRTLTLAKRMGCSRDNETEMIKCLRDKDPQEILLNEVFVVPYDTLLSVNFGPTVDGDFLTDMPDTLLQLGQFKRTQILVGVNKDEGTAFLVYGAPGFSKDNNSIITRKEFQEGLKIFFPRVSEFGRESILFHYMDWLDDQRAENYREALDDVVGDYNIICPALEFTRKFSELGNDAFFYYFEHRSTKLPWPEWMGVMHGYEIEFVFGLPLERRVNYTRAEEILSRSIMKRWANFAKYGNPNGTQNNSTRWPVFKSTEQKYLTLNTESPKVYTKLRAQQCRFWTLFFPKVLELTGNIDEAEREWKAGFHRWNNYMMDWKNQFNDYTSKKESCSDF
UniProt P10408, sequence (whole entry, looked up): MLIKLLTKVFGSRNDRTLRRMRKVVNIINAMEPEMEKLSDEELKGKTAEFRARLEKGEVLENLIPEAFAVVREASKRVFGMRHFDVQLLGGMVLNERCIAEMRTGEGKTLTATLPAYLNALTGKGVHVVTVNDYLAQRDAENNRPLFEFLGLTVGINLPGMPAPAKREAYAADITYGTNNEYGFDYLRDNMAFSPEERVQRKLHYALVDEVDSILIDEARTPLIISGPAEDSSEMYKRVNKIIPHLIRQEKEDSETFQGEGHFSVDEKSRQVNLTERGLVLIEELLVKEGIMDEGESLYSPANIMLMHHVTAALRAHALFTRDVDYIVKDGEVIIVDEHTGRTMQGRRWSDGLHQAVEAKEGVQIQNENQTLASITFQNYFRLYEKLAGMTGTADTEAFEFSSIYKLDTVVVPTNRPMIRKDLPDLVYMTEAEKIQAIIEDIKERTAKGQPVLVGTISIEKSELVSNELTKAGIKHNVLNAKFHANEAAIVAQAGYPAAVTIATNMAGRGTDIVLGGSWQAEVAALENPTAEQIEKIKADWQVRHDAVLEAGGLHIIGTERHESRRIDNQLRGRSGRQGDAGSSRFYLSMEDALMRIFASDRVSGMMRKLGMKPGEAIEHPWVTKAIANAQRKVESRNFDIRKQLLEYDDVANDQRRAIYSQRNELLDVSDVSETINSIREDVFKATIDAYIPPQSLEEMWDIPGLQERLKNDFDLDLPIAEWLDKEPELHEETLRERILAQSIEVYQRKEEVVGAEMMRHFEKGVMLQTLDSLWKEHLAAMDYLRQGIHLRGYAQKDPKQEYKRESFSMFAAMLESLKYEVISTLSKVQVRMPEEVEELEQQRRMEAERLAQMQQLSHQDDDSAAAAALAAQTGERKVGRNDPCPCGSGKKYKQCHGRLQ
UniProt P06276, sequence (whole entry, looked up): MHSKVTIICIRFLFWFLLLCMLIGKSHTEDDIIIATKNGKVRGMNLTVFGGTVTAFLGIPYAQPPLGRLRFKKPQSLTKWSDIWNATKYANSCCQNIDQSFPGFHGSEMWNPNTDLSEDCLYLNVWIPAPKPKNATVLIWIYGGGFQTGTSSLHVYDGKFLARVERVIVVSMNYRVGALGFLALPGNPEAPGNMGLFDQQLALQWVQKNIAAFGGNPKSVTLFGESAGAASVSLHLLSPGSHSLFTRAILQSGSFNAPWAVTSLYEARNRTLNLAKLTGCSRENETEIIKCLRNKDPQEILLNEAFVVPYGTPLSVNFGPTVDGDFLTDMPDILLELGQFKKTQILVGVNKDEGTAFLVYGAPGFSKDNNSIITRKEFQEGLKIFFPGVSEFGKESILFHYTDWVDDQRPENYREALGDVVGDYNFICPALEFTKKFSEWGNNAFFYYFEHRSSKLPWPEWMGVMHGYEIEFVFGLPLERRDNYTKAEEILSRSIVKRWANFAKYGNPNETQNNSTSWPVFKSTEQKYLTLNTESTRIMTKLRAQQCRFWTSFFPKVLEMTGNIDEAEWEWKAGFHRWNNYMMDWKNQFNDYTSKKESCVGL
UniProt P33527, sequence (whole entry, looked up): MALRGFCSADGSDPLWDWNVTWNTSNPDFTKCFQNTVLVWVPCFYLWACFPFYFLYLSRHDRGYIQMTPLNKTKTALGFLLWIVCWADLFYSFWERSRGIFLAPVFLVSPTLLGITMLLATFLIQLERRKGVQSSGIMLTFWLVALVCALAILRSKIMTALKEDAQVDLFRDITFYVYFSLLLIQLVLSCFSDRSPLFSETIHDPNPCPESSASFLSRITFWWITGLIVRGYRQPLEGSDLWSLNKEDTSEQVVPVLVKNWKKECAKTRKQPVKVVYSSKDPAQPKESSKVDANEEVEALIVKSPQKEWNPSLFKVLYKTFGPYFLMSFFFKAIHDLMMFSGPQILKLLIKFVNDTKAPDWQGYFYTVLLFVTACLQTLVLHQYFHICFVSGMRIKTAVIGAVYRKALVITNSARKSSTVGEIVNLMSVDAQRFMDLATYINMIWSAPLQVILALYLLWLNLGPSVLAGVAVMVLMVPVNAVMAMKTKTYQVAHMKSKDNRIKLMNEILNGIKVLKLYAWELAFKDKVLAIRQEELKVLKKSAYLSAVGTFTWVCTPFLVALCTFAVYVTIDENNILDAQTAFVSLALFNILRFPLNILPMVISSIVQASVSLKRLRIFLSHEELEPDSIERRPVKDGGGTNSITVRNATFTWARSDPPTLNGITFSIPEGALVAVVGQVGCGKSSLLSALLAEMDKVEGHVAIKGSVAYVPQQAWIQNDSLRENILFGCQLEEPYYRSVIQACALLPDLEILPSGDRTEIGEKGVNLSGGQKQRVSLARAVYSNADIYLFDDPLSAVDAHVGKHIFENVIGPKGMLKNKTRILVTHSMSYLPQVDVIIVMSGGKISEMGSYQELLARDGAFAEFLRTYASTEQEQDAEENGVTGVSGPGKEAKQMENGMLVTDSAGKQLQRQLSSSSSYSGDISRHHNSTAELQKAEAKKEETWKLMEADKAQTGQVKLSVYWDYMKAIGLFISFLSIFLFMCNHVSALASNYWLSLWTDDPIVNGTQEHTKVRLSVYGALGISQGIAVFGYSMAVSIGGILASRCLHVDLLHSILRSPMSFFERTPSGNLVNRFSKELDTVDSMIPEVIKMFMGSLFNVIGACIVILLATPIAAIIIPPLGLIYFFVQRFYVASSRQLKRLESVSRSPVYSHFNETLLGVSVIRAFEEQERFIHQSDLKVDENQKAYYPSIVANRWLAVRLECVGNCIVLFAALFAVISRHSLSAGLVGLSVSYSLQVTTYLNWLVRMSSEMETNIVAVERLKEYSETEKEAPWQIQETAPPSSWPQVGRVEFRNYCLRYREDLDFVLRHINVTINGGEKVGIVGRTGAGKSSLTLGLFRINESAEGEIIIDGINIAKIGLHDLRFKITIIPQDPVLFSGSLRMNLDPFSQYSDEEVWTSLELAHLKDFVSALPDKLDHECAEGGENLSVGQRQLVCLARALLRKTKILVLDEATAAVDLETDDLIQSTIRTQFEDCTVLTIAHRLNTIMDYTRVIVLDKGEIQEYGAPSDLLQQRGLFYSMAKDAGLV
UniProt P28072, sequence (whole entry, looked up): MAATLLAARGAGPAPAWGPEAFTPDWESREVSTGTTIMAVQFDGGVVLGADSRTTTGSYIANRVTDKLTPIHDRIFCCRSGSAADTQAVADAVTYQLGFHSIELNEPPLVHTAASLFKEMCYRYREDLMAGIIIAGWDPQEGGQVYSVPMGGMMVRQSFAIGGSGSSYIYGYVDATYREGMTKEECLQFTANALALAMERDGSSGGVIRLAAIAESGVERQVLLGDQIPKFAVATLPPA
UniProt Q86XQ3, sequence (whole entry, looked up): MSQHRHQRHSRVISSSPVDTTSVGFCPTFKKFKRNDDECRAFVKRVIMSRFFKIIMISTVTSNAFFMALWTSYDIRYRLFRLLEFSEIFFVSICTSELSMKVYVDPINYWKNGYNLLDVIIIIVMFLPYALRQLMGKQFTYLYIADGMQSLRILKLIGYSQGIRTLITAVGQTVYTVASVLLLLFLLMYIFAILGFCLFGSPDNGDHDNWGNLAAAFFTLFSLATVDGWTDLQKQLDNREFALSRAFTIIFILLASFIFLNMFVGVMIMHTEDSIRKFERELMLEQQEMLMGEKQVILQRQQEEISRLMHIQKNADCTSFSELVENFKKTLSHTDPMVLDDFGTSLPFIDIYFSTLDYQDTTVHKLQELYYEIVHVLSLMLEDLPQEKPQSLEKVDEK
UniProt Q9Y6L6, sequence (whole entry, looked up): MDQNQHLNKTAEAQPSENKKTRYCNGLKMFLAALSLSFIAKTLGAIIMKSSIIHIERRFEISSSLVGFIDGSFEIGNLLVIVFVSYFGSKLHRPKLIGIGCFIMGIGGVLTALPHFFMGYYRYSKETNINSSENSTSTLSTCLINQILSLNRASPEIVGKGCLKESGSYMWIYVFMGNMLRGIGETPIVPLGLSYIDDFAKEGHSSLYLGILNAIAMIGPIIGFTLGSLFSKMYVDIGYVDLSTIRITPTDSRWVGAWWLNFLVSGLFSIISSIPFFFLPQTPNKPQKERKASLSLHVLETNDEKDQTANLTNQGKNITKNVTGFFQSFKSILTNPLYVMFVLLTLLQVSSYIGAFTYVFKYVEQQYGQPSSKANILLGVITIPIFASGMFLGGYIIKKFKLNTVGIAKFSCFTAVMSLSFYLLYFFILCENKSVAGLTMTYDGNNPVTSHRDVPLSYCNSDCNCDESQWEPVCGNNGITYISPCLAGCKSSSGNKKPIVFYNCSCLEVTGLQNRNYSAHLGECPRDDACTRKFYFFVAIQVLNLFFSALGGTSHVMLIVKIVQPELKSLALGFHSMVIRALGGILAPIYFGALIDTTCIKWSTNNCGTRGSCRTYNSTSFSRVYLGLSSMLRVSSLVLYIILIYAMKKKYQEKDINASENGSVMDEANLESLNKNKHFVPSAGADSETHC

SMILES | target | test | test system | setting | IC50
Cc1ccc(C2=NN(C(=O)CCC(=O)O)C(c3cn(-c4ccccc4)nc3-c3ccc(C)cc3)C2)cc1 (stereo not drawn) | RPA1 (Homo sapiens, UniProt P27694) | protein-nucleic acid interaction, inhibitor, mobility shift |  |  | 20.3 µM
N.N.N.N.N.N.[Co+3] | Magnesium transporter MRS2 homolog, mitochondrial (MRS2, Homo sapiens, UniProt Q9HD23, R332S) | sodium current, inhibitor, two-electrode voltage clamp | Xenopus oocytes | pH 7.4, room temperature, -60 mV holding potential, partial block | 300 µM
C[C@@]12OC(=O)[C@]1([C@@H](O)[C@@H]1C=CCCC1)NC(=O)[C@@H]2CCCl | PSMB6/PSMB7 (Homo sapiens, UniProt P28072+Q99436) | enzyme activity |  |  | ~0.3 µM
N.N.[Cl][Pt][Cl] | Alpha-synuclein, oligomers (SNCA, Homo sapiens, UniProt P37840) | oligomer-induced calcein release, inhibitor | DOPG liposomes |  | 1.05 µM
c1ccc2c(c1)-c1cccc3c1c-2cc1ccccc13 | Cytochrome P450 1B1 (CYP1B1, Homo sapiens, UniProt Q16678) | enzyme activity, inhibitor |  | 5 s, pH 7.4 | < 0.05 µM
COc1cccc2c1C(=O)c1c(O)c3c(c(O)c1C2=O)C[C@@](O)(C(=O)CO)C[C@@H]3O[C@H]1C[C@H](N)[C@@H](O)[C@H](C)O1 | CRISPR-associated endonuclease Cas9/Csn1 (cas9, Streptococcus pyogenes serotype M1, UniProt Q99ZW2) | DNA cleavage, inhibitor, in vitro cleavage | Streptococcus pyogenes | together with: plasmid or 87 bp linear DNA substrate | 2 to 5 µM
CC12CC3CC1(C)C1(C)CC3(N)CC21C | NMDA receptor (rat) | intracellular Ca2+ increase, inhibitor | rat cerebellar granule neurons | together with: 100 µM NMDA plus 10 µM glycine | 4.1 ± 1.7 µM
C[C@@H]1C[C@H]2[C@@H]3CCC4=CC(=O)C=C[C@]4(C)[C@@]3(Cl)[C@@H](O)C[C@]2(C)[C@@]1(OC(=O)c1ccco1)C(=O)CCl | ABCC1 (Homo sapiens, UniProt P33527) | efflux, inhibitor, flow cytometry | SupT1 cells overexpressing ABCC1 | together with: SYTO 9 100 nM | 1.2 ± 1 µM
CCc1ccc(C(=O)NCCCC[C@H](NC(=O)[C@H](Cc2ccc(C(F)(F)P(=O)(O)O)cc2)NC(=O)[C@H](Cc2ccccc2)NC(=O)CO[C@H]2C[C@@H](C)CC[C@@H]2C(C)C)C(N)=O)cc1 | PTPN2 (Homo sapiens, UniProt P17706) | enzyme activity, inhibitor |  | no preincubation, together with: pNPP substrate | 0.0092 ± 0.0014 µM
FC(F)(F)c1cc(-c2nnc(Sc3cc(Cl)nc(Sc4ccccc4)n3)[nH]2)cc(C(F)(F)F)c1 | secA (Escherichia coli, UniProt P10408) | protein translocation, inhibitor | 773 inverted membranes | together with: proOmpA | 1.5 to 2 µM and 2 µM
CCC(CC)COC(=O)[C@H](C)N[P@](=O)(OC[C@H]1O[C@@](C#N)(c2ccc3c(N)ncnn23)[C@H](O)[C@@H]1O)Oc1ccccc1 | SLCO1B1 (Homo sapiens, UniProt Q9Y6L6) | transport, inhibitor |  | 10 (unit not given), pre-incubation, together with: estrone-3-sulfate | 36.1 ± 24.4 µM
O=C(O)c1cc[c]([Hg][Cl])cc1 | GBA1 (Homo sapiens, UniProt P04062, R534H) | enzyme activity, inhibitor |  | pH 5.9, 1.9 nM enzyme, together with: 30 µM resorufin β-glucoside | 0.62 µM
CN1CC[C@@]2(C)c3cc(OC(=O)Nc4ccccc4)ccc3N(C)[C@@H]12 | Cholinesterase (BCHE, Homo sapiens, UniProt P06276) | enzyme activity, inhibitor, immobilized enzyme reactor, HPLC-UV | immobilized recombinant human enzyme | inhibition plateau, L-tartrate salt | 4.61 ± 0.14 µM
O=C1Nc2ccc3ncsc3c2/C1=C/Nc1ccc(S(=O)(=O)Nc2ccccn2)cc1 | Putative glycogen synthase kinase (Leishmania major, UniProt Q4QE15, D105E) | enzyme activity, inhibitor |  | 90 min, 30 °C, together with: ATP 2 µM | 0.33 µM
O=C(Cc1ccc(I)cc1)N[C@H]1CCOC1=O | rhlR (Pseudomonas aeruginosa, UniProt P54292) | reporter gene, antagonist |  |  | 8.1 µM
CCN(CC)CCCCNc1ncc2cc(-c3c(Cl)cccc3Cl)c(NC(=O)NC(C)(C)C)nc2n1 | ERRα (human) | reporter gene, antagonist, luciferase reporter qHTS |  |  | 3.35 µM
CCCCN1C(=O)C(C=CC=CC=C2C(=O)N(c3ccc(S(=O)(=O)O)cc3)N=C2C)C(=O)N(CCCC)C1=O | SLC4A1 (Homo sapiens, UniProt P02730) | chloride exchange flux, inhibitor, 36Cl exchange flux | nystatin-treated cells | 0 °C, short exposure, initial binding | 0.83 ± 0.14 µM
CO[C@H]1CC=C2CCN3CCC4=C(CC(=O)OC4)[C@]23C1 | Neuronal acetylcholine receptor; alpha4/beta2 (Rattus norvegicus, UniProt P09483+P12390) | ligand displacement, radioligand |  | cell membranes | 0.345 µM

SMILES | target | test | test system | setting | IC50
O=C(CNC(=S)NN=Cc1ccc([N+](=O)[O-])cc1)c1ccccc1O | Cholinesterase (BCHE, Equus caballus, UniProt P81908) | enzyme activity, inhibitor, Ellman method |  | together with: butyrylthiocholine iodide | 270.26 ± 0.19 µM
CC1=C(C(=O)NC(=O)c2cnccn2)C(c2cccc([N+](=O)[O-])c2)NC(=S)N1 (stereo not drawn) | Cholinesterase (BCHE, Equus caballus, UniProt P81908) |  |  |  | 5.38 ± 0.01 µM
N[C@@H](Cn1cc(I)c(=O)[nH]c1=O)C(=O)O | Glutamate receptor 3, S1S2 ligand-binding domain (Rattus norvegicus, UniProt P19492, del531-655/S657T/V656G) |  |  |  | 0.79 ± 0.14 µM
CC(=O)OC[C@H]1O[C@@H]([S-])[C@H](OC(C)=O)[C@@H](OC(C)=O)[C@@H]1OC(C)=O.CCP(CC)CC.[Au+] | Thioredoxin glutathione reductase (Schistosoma mansoni, UniProt Q962Y6) | DTNB reduction, inhibitor |  | 10 min preincubation with NADPH, together with: 3 mM DTNB | 0.0032 µM
COCCCNc1c2c3c(cccc3[nH]c1=O)C(=O)c1ccccc1-2 | ROP18 (Toxoplasma gondii, UniProt Q2PAY2) | kinase activity, inhibitor |  | 3 h, room temperature, together with: peptide FL-T 1 µM, 60 µM ATP | > 10 µM
O=C(OC(C(F)(F)F)C(F)(F)F)N1CCN(Cc2cccc(Oc3ccccc3)c2)CC1 | Monoacylglycerol lipase ABHD6 (Abhd6, Rattus norvegicus, UniProt Q5XI64) | competitive ABPP | rat brain membrane proteome |  | 0.05 µM
CCCCCCCCOc1c(Br)cc(C(c2c(O)c3ccccc3oc2=O)c2c(O)c3ccccc3oc2=O)cc1Br | MAL12 (Saccharomyces cerevisiae S288c, UniProt P53341) | enzyme activity, inhibitor, absorbance |  | pH 6.9 | 1.21 µM
N#CC1(C#N)C2C=CC(c3coc4cccc2c34)C1(C#N)C#N (stereo not drawn) | Replicase polyprotein 1ab, main protease (Feline coronavirus, UniProt Q98VG9) | enzyme activity, inhibitor, FRET |  |  | 16.1 µM
CCc1cccc(CC)c1N=C=O | Hcn1 (Mus musculus, UniProt O88704) | channel gating (V1/2 shift), inhibitor, two-electrode voltage clamp | Xenopus oocytes |  | 240 ± 20 µM
C#C[C@]1(O)CC[C@H]2[C@@H]3CCC4=CC(=O)CC[C@@H]4[C@H]3CC[C@@]21CC | CatSper channel complex (Homo sapiens, UniProt Q7RTX7+Q86XQ3+Q8NEC5+Q96P56) | calcium influx, inhibitor | human sperm | pH 8.2, together with: 140 mM K+ | > 10 µM
O=C(NCCCCCn1ccc2ccc(F)cc21)Oc1ccc(F)cc1 | Cholinesterase (BCHE, Equus caballus, UniProt P81908) | enzyme activity, inhibitor, HPLC |  |  | 7.1 µM
C[N+](C)(C)CCSS(C)(=O)=O | Guanine nucleotide-binding protein G(i) subunit alpha-3 (GNAI3, Cricetulus griseus, UniProt Q60397) |  | CHO (Y2 receptor) membranes | together with: NEM | 13.1 ± 1.29 µM
C[C@H]1[C@@H](CC(=O)NCCCC(=O)N[C@@H](CC(=O)NC(C)(C)C)C(=O)NCCNC(=O)c2cc(-c3ccccc3F)ccc2F)O[C@@H]2O[C@@]3(C)CC[C@H]4[C@H](C)CC[C@@H]1[C@@]24O3 | 20S proteasome (Plasmodium falciparum, UniProt A0A5K1K7U1+Q8IJT1) | enzyme activity, inhibitor |  | together with: suc-LLVY-AMC substrate, PA28alpha | 0.0044 ± 0.0005 µM
Clc1ccc(C(c2ccccc2Cl)C(Cl)(Cl)Cl)cc1 (stereo not drawn) | KCNH2 (Homo sapiens, UniProt Q12809) | thallium influx, inhibitor, primary qHTS | hERG-transduced cells | two runs | 17 ± 11 µM
CC(C)(NS(=O)(=O)c1ccc(Oc2ccc(F)cc2)cc1)C(=O)NO | ERRα (human) | reporter gene, antagonist, luciferase reporter qHTS |  |  | 2.66 µM
O=C([O-])c1ccccc1-c1c2cc(Br)c(=O)cc-2oc2[c]([Hg+])c([O-])c(Br)cc12.[Na+].[Na+].[OH-] | KMT5A (Homo sapiens, UniProt Q9NQR1) | enzyme activity, inhibitor |  |  | 4.2 µM
COc1ccc(NC(=O)N2CCCCN3[C@H](CN(C)C)[C@H](c4ccc(C#Cc5ccccc5)cc4)[C@@H]3C2)cc1 | Phenylalanine--tRNA ligase alpha subunit (Plasmodium falciparum, UniProt Q8I246) | aminoacylation activity, inhibitor |  |  | 0.023 µM
CC(C)[C@H](NC(=O)[C@H](CCCNC(=N)N)NC(=O)N[C@@H](Cc1ccccc1)C(=O)O)C(=O)N[C@H](C=O)CCCNC(=N)N | TMPRSS2 (Homo sapiens, UniProt O15393) | enzyme activity, inhibitor, fluorescence |  |  | 0.152 µM
